Measurements of several laboratories.
Every numbered part comes from another study and shows a few of its results, in no order. Positions count from the first letter of the parent shown.

Series 1 — method: RNA Bind-n-Seq; form: RNA; medium: in vitro; tested at: 100 nM; reference: input RNA pool; reading: higher = stronger binding
Target: RING finger protein unkempt homolog, zinc fingers 1-6, SBP tag (UNK, Homo sapiens, UniProt Q9C0B0, residues 30-357)
Chain of UniProt Q9C0B0 (30-357, looked up): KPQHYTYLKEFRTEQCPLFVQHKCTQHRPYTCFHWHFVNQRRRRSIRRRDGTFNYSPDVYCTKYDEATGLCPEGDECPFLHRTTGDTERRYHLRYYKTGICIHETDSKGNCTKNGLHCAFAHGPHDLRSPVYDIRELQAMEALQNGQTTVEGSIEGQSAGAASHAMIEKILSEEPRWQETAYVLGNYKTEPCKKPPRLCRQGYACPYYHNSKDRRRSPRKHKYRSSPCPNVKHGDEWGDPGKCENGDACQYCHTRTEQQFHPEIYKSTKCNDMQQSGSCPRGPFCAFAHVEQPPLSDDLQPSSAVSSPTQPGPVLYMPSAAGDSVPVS
Notes: RNA with constant flanks, vertebrate orthologous sites, ends assumed
Shared flanks, not repeated: GGGAGUUCUACAGUCCGACGAUC … CAACAGAGGAUUGAGCAUCA
| Strand | bound/input enrichment [ratio] |
| --- | --- |
| CAGGGCUGGCCCCAAUCCCACCUCUGUUCAUUCUGUAAACUACAGCCUGUAAAUAACACUUAGCAUUCCUAUUGUAACAAAAUUAAUUUUUAUGAAAUAAAUUAUAUUUCCUAGUCUAAU | 0.875 |
| AAAUUUAUUUCAUGCCCUGGACUCCCUAUCGUACUGAUACUUUAAUAGAAUAUGCUUCCUUAGAAGAUUUCCAAAAUAGUCGCCAAACGACGACAUACAAACUUCCAAAUCGAGUAGAUG | 1.34 |
| GCGGCUGGUGGGGGAAUAUCCCCUCCUCUGGCCUUGUCUCCCCUUCCUGCCACCAGCCCCUCAUUAUUUUUUUUUUAACCACCAUGUGAUUAAGGUCGGCGCUGCCUCCCCUGACCCGCU | 1.41 |
| ACAGGAGCAGCAUAGGCUGUUUGAACUUUGGGGAAACGAGCUUUGCUUUUUAUAUUUAACUAGGAUACUUUUACGUGAUGGGUGCUUUGAGUGUGAAUGCAGCAGGCUCUUGUUUCCGAG | 1.18 |
| CGAGAUUUUGUAAAAGAACAAGGCUUUGGGGAAAUGAGUUUUUUGCGUUUUGUAUUUAAAUAGGAUACUUUUAUAUGAUGGGUGCUUUUGAGUGUGAGUGCAGCCGGGCCUCCAUUUGGG | 0.799 |
| GUUGUGAUCCCUUUAACAUCCACAGAAAACUAUCAAAGAAAAACUUGCGAGCAAUUGACUUAGACGAUGCAGCUUUUCUAAGUGCCAAGUUUGGAAGGCAGUUUGUUCCUGGUUGGAAGC | 0.597 |

Series 2 — method: RNA Bind-n-Seq; form: RNA; medium: in vitro; tested at: 365 nM; reference: no-protein control; reading: higher = stronger binding
Target: RNA binding protein fox-1 homolog 2, RRM domain, GST-SBP tag (RBFOX2, Homo sapiens, UniProt O43251-10, residues 100-194)
Notes: natural RNA segment, single round, ends assumed
Shared flanks, not repeated: GGGAGUUCUACAGUCCGACGAUC … UGGAAUUCUCGGGUGCCAA
| Strand | RBNS enrichment (R) |
| --- | --- |
| CCACGUGUAUAACAGCUCUGCUGGACACCCAAGAAAGCCAUGGGAACGCCAACUGGAAAGGUCCCCUUCCCCAGGGGAGCCUGCGAAGGAGAGGUUCUGUAGAAUCCAAG | 0.389 |
| GCCCCUGCGGGACUAGCACAGCUGGGCUGUGACAGUGGCAGAGGUGGCACCCAGAGCUUCUGUUAACUUGAGCCGGGAGCUGGGUUCUUUAGCAAGAUGAGCUUCUGGGG | 0.367 |
| CUACUUUCCGUUUACUUCAAUCCUUGCCUUUUUGGUCAUUGUUAUAAUGCCAGCUUUAGGACAGAAAGAAUUAUAAGAAAACCAGCAUAAUACCUGAUAUAUUAAAAUGU | 0.434 |
| ACACAAUAAAACUCUGAAAUGAAGAUGCUUUGCUGUGCAUUGUUUGAAAGAUUACAAACAGCUGUUUCUCAAACCCUCUCAAUCCAUCAUAAUAAAAUACAUAAUAUUGU | 0.365 |
| UGCUCUCAUUUGCAGUUUCUGUGUCAUGUUUGCUUCUUGAAUCUGAUUGACUAGAAUAUUUCUCCCCCCUGCCCCUUGAUGUGUGAUGUCACCACCUGGUCCUAAUUUAU | 0.598 |
| GAGUCUCACCCUGUUGGCCAGGCUGGAGUGCAGUAAGUGGCACAAUCUCGGCUCACUGCAACCUCCGCCUCCUUGGUUCCAGCAAUUCUUCUGCCUCAGCCUCCCGAGUA | 0.65 |
| CUAUUUUCCCCCCAGACUGGAAUUUCCUCAGCUUUAUCUUGUCUUGCUUUGAAGUUUUGCUCAAUGUUCCUCCCUUCCGACCACUUCCACUUAAAUAAAGUCUUUAAGUA | 5.23 |
| AGAGGCACCGGCGAUGAAGUGGCACAGCCCCAGUCGGAAUCCAGCGGCUUCUGAAAGUGCCUUGGUGUGAGAAGGAGGAAGGGGCCGCUUGGAGAGCUGGGCUCUCGCAU | 1.13 |

Series 3 — method: DHFR PCA, deep sequencing; medium: yeast; with: (+)-ABA 0 µM; reference: wild-type fitted maximum; reading: higher = stronger binding
Target: ABI1, truncated, D143A, DHFR fusion (Arabidopsis thaliana)
Notes: methotrexate growth selection, single substitutions
Starting sequence: PYL1, truncated, DHFR fusion (Arabidopsis thaliana); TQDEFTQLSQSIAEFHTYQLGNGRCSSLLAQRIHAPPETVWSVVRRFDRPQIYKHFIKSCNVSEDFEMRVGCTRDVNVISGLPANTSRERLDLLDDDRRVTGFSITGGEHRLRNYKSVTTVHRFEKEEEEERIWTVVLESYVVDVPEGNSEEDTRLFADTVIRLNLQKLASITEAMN; partner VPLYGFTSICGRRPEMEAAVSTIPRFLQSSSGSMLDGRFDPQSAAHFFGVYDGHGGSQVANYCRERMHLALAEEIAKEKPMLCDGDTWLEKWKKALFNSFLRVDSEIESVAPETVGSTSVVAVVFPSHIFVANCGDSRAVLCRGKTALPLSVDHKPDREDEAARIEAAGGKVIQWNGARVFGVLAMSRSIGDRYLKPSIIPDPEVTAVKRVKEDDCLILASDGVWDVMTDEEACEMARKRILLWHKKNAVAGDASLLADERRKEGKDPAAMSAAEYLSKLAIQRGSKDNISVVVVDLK
| Change | relative binding score |
| --- | --- |
| E125R | 23.6% |
| A170Q | 6.91% |
| T1A | 21.3% |
| A175E | 22.6% |
| N77L | 26.4% |
| T120S | 55.8% |
| I52G | -2.55% |
| D153P | -11.3% |
| K116L | -3.86% |
| E131V | 31.7% |
| N114C | 1.26% |

Series 4 — target: CCNB3, cyclin fold, Cln2 fusion (human); method: yeast growth competition, sequencing; medium: yeast; notes: weak parent motif; reference: not given; reading: higher = stronger binding
Starting sequence: WEE1 docking peptide (human); HKTFRKLRLFDTP
| Change | normalised enrichment score |
| --- | --- |
| HKFFRKLRLFDTP [T3F] | 0.0486 |
| HKTFRKLRLFDTL [P13L] | -0.104 |
| HKTFRKLRLFDTM [P13M] | 0.534 |
| HKTFRKTRLFDTP [L7T] | -0.132 |
| YKTFRKLRLFDTP [H1Y] | 0.047 |
| HKTFRKLRLFDGP [T12G] | 0.479 |
| HKTFRKLRLFNTP [D11N] | -0.666 |
| HKTFRKLRLFDNP [T12N] | 0.626 |
| HKTFRKLRFFDTP [L9F] | 0.172 |
| HKTFRVLRLFDTP [K6V] | -0.00619 |
| HKTFRKLRCFDTP [L9C] | -0.185 |
| HVTFRKLRLFDTP [K2V] | 0.14 |
| HKTFRKLYLFDTP [R8Y] | 0.918 |
| HKTFRKERLFDTP [L7E] | 0.107 |
| HKTRRKLRLFDTP [F4R] | 0.112 |
| HKTFRKLRLNDTP [F10N] | -0.0938 |
| HKTFRCLRLFDTP [K6C] | 0.489 |
| RKTFRKLRLFDTP [H1R] | -0.0623 |
| HKTFRNLRLFDTP [K6N] | 0.386 |

For quick reference, copied from above (series 3):
| Change | relative binding score |
| --- | --- |
| T1A | 21.3% |
| A175E | 22.6% |
| N77L | 26.4% |
| T120S | 55.8% |
| I52G | -2.55% |
| D153P | -11.3% |
